Assay results collected from several papers.
Protocols differ between the studies behind these lines. “And” joins repeats or separate records; there may be more than shown. ± marks the error that the study gave.
TDP1: Tyrosyl-DNA phosphodiesterase 1 (TDP1, Homo sapiens, UniProt Q9NUW8)
Sequence of UniProt Q9NUW8 (whole entry, looked up): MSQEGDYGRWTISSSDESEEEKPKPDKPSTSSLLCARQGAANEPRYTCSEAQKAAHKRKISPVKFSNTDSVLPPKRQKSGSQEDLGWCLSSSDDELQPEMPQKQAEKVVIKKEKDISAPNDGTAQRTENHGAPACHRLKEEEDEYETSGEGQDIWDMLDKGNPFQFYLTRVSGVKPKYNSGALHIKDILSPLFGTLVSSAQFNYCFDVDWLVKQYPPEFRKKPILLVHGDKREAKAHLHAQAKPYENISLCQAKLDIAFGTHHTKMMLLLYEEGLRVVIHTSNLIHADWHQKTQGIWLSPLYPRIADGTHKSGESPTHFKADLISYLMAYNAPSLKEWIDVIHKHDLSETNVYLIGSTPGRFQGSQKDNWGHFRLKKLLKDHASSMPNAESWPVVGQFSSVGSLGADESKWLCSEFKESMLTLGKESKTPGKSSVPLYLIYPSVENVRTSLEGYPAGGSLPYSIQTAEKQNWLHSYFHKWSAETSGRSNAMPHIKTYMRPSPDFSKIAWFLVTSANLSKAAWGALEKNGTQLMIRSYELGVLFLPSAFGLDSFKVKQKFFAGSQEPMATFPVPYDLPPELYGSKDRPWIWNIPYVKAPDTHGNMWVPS

| SMILES | target or system | assay | test system | conditions | scale | quantity | value |
| --- | --- | --- | --- | --- | --- | --- | --- |
| CC(CC(=O)O)c1nn(C)c2nc(N)[nH]c(=O)c2c1=O (stereo not drawn) | Escherichia coli | LC-MS/MS | BW25113 | 100 µM, 10 min, 37 °C |  | intracellular accumulation | 4.42 ± 0.5 µM |
| O=C1NC2(CC2)COc2ncc(F)cc2[C@H]2COCCN2c2ccn3ncc1c3n2 | Salmonella typhimurium | Ames test | TA102 | 150 µg/plate, 48 h, together with: rat liver S9 |  | revertant colonies | 396 ± 12 revertants/plate |
| O=C(O)c1ccc(Nc2c(-c3ccccc3)nc3ccc(CON=Cc4cc(Cl)nc(-c5ccccc5)c4)cn23)cc1 | TDP1 | enzyme activity, inhibitor |  | 100 µM, unpurified compound |  | inhibition | 29.9% |
| CC(C)OCCOCc1ccc(OCC(O)CN(N=O)C(C)C)cc1 (stereo not drawn) | Salmonella typhimurium | Ames test | TA98 | 5 µg/plate, without metabolic activation | reference: solvent control | revertant fold increase | 0.9 fold |
| CC(C)(C)NCC(SS(=O)(=O)O)c1ccccc1 (stereo not drawn) | Schistosoma mansoni | perfusion day 44 | infected Swiss Webster mice | 600 mg/kg single dose, dosed day 7 post-infection |  | body weight | 33.7 g and 30 g and 28 g and 27 g and 31.2 g |
| CCN(CC)CC#CCNc1ccnc2cc(Cl)ccc12 | Salmonella typhimurium | mini-Ames test | TA98 | 250.0 µg/well, without S9 |  | revertants | 12 revertants/well and 10 revertants/well |
| O=C(O)c1ccc(Nc2c(-c3ccc(CON=Cc4ccc(N5CCSCC5)cc4)cc3)nc3cc(-c4ccccc4)ccn23)cc1 (mixture of isomers) | TDP1 | enzyme activity, inhibitor |  | 100 µM, unpurified compound |  | inhibition | 43.7% |
| O=C1C2CC3CC1CC(C(=O)N1CCN(c4ccc([N+](=O)[O-])c5ncccc45)CC1)(C3)C2 | Salmonella typhimurium | Ames test | TA97a | 0.02 µg/well, with S9 | reference: vehicle | revertant fold increase | 0.9 |
| COC(=O)Nc1nc2cc(C(O)c3ccc(F)cc3)ccc2[nH]1 (stereo not drawn) | Escherichia coli | Ames preincubation test | WP2 uvrA | 875.0 µg/plate, 3 days, without S9 |  | revertants per plate | 43 revertants/plate |
| CN(Cc1nn(C)c2nc(N)[nH]c(=O)c2c1=O)c1nnn[nH]1 | Escherichia coli | LC-MS/MS | BW25113 | 100 µM, 10 min, 37 °C |  | intracellular accumulation | 9.92 ± 0.5 µM |
| Nc1nc2cc(C(=O)c3ccc(F)cc3)ccc2[nH]1 | Escherichia coli | Ames preincubation test | WP2 uvrA | 625.0 µg/plate, 3 days, without S9 |  | revertants per plate | 21 revertants/plate |
| CC(C(=O)O)c1n[nH]c2nc(N)[nH]c(=O)c2c1=O (stereo not drawn) | Escherichia coli | LC-MS/MS | BW25113 | 100 µM, 10 min, 37 °C |  | intracellular accumulation | 0.49 ± 0.2 µM |

For quick reference, copied from above:
| SMILES | target or system | assay | test system | conditions | scale | quantity | value |
| --- | --- | --- | --- | --- | --- | --- | --- |
| O=C(O)c1ccc(Nc2c(-c3ccc(CON=Cc4ccc(N5CCSCC5)cc4)cc3)nc3cc(-c4ccccc4)ccn23)cc1 (mixture of isomers) | TDP1 | enzyme activity, inhibitor |  | 100 µM, unpurified compound |  | inhibition | 43.7% |
| O=C1C2CC3CC1CC(C(=O)N1CCN(c4ccc([N+](=O)[O-])c5ncccc45)CC1)(C3)C2 | Salmonella typhimurium | Ames test | TA97a | 0.02 µg/well, with S9 | reference: vehicle | revertant fold increase | 0.9 |
